{"data": "Published values gathered from unrelated publications", "note": "A part holds a random share of what one study measured.", "chain of UniProt P21127 (whole entry, looked up)": "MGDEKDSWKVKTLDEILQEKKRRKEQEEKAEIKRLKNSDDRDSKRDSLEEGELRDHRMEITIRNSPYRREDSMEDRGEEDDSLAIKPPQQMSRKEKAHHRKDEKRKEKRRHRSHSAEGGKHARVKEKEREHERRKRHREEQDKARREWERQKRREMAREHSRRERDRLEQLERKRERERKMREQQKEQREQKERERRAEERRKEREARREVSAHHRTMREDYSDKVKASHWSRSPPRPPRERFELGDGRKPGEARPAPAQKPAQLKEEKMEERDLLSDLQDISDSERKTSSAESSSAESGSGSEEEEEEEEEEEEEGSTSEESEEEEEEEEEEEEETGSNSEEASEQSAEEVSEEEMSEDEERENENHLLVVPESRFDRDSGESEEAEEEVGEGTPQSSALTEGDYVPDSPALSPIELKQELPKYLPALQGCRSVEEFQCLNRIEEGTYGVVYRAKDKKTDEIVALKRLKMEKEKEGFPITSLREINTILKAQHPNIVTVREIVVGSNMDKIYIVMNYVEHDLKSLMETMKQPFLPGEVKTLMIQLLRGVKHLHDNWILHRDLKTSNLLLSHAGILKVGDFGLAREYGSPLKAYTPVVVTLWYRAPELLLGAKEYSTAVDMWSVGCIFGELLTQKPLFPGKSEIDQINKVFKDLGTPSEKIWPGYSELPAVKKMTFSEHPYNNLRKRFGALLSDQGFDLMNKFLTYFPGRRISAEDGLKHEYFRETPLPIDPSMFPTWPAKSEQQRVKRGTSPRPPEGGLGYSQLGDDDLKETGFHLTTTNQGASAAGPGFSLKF", "chain of UniProt P31152 (whole entry, looked up)": "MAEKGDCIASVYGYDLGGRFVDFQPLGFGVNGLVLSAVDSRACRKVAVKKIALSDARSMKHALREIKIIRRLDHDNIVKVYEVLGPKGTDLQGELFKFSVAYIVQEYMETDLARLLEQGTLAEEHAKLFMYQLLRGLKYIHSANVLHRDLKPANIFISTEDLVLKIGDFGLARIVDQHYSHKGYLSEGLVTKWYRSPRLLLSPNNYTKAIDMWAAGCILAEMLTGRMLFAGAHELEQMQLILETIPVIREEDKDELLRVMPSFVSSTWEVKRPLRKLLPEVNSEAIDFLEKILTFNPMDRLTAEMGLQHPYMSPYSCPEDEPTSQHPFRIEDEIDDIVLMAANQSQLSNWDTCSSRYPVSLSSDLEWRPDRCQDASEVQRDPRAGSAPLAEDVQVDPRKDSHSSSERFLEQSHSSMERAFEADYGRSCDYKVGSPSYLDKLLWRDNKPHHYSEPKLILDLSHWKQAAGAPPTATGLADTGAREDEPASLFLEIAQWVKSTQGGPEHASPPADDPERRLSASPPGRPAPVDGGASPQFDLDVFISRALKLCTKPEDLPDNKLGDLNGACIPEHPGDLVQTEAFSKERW", "chain of UniProt Q9UBF8 (whole entry, looked up)": "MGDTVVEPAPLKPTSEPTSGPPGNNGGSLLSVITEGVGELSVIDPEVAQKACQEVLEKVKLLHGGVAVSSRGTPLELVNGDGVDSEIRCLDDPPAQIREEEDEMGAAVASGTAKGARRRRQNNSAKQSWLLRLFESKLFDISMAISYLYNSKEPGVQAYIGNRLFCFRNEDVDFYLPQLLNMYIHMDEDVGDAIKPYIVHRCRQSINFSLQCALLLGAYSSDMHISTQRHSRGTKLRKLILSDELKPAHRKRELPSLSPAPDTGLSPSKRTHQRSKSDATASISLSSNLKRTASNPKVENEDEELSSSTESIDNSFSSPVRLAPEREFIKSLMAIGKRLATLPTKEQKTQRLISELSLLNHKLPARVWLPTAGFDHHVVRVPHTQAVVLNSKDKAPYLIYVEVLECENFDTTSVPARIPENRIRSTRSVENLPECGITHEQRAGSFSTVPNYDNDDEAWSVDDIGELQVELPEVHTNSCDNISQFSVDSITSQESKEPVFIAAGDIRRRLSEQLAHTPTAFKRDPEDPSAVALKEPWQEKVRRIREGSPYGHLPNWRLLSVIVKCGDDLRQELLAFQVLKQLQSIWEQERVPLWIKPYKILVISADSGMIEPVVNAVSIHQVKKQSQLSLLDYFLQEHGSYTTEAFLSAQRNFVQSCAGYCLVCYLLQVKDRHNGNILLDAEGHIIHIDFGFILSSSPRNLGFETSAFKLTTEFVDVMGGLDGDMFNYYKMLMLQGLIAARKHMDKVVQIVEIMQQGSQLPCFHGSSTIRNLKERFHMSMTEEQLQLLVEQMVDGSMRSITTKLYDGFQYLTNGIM", "chain of UniProt P53355 (whole entry, looked up)": "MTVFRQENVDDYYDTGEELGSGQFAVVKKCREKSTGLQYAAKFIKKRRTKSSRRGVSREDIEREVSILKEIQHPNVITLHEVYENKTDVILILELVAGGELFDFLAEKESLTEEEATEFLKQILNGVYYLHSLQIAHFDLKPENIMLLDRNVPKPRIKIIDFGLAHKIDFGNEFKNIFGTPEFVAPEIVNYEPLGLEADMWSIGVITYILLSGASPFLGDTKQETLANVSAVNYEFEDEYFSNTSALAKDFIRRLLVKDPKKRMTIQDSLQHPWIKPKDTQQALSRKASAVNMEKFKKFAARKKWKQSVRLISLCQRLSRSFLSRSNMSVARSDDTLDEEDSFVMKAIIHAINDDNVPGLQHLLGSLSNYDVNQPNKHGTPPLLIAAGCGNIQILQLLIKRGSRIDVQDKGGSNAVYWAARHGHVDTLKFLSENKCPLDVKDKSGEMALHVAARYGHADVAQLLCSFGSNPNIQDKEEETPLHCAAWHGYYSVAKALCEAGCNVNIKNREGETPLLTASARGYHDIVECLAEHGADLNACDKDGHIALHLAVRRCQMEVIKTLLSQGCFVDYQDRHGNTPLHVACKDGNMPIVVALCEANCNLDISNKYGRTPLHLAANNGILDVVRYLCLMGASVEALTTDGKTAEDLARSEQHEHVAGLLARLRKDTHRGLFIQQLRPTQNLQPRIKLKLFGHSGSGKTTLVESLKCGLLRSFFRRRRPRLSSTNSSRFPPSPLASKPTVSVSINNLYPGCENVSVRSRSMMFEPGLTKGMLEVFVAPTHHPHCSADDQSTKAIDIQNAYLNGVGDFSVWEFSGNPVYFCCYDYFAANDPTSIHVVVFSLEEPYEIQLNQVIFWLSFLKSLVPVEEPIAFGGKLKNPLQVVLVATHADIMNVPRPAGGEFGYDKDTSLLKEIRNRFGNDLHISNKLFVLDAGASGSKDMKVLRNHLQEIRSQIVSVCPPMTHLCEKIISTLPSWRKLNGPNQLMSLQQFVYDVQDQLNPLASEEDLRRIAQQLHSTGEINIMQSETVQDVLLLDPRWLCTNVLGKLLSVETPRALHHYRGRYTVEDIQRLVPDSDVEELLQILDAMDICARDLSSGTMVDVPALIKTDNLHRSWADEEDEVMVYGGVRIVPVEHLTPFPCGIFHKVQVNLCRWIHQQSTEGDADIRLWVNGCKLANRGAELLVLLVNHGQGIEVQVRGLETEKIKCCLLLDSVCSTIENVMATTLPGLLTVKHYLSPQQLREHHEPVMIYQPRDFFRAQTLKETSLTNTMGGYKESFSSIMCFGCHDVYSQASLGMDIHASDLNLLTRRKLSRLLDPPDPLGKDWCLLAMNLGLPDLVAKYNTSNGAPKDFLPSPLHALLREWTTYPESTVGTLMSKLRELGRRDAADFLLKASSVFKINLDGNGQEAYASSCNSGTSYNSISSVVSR", "chain of UniProt O14757 (whole entry, looked up)": "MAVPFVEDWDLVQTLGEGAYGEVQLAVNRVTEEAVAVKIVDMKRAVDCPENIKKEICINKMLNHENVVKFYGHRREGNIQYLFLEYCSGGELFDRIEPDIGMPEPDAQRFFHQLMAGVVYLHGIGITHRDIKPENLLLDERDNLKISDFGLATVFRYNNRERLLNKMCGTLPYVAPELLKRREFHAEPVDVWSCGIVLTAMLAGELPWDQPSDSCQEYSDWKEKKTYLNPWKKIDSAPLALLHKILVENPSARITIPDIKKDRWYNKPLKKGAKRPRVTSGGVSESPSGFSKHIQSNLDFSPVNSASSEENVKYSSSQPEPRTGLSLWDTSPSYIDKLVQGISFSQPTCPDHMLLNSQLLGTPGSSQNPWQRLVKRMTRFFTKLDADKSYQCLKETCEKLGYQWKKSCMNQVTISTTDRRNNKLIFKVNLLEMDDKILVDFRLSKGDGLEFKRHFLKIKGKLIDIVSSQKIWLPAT"}
{"data": "Study 1", "Compound": "CC(C)S(=O)(=O)c1ccc2nccc(Nc3ccc4sc(C5CCCC5)nc4c3)c2c1.Cl", "read-out": "kinase activity", "action": "inhibitor", "concentration": "1 µM"}
{"target": "Serine/threonine-protein kinase 38 (STK38, Homo sapiens, UniProt Q15208)", "remaining activity [%]": 118}
{"target": "Tyrosine-protein kinase TXK (TXK, Homo sapiens, UniProt P42681)", "remaining activity [%]": 85}
{"target": "Serine/threonine-protein kinase SIK1 (SIK1, Homo sapiens, UniProt P57059)", "remaining activity [%]": 99}
{"target": "Dual specificity tyrosine-phosphorylation-regulated kinase 3 (DYRK3, Homo sapiens, UniProt O43781)", "remaining activity [%]": 88}
{"target": "Tyrosine-protein kinase CSK (CSK, Homo sapiens, UniProt P41240)", "remaining activity [%]": 74}
{"target": "Serine/threonine-protein kinase LATS1 (LATS1, Homo sapiens, UniProt O95835)", "remaining activity [%]": 80}
{"target": "Serine/threonine-protein kinase SIK2 (SIK2, Homo sapiens, UniProt Q9H0K1)", "remaining activity [%]": 103}
{"target": "Serine/threonine-protein kinase OSR1 (OXSR1, Homo sapiens, UniProt O95747)", "remaining activity [%]": 104}
{"target": "Receptor-type tyrosine-protein kinase FLT3 (FLT3, Homo sapiens, UniProt P36888)", "remaining activity [%]": 77}
{"target": "Death-associated protein kinase 1 (DAPK1, Homo sapiens, UniProt P53355)", "remaining activity [%]": 111}
{"data": "Study 2", "SMILES": "C[C@H]1CC[C@H](n2c3cnccc3c3cnc(Nc4ccc5c(n4)CCN(C(=O)CO)C5)nc32)CC1", "read-out": "cell-free assay", "concentration": "1 µM"}
{"target": "Phosphatidylinositol 5-phosphate 4-kinase type-2 beta (PIP4K2B, Homo sapiens, UniProt P78356)", "remaining signal [%]": 53}
{"target": "Serine/threonine-protein kinase/endoribonuclease IRE1 (ERN1, Homo sapiens, UniProt O75460)", "remaining signal [%]": 55}
{"target": "cAMP-dependent protein kinase catalytic subunit PRKX (PRKX, Homo sapiens, UniProt P51817)", "remaining signal [%]": 65}
{"target": "MAP kinase-activated protein kinase 2 (MAPKAPK2, Homo sapiens, UniProt P49137)", "remaining signal [%]": 100}
{"target": "Serine/threonine-protein kinase PLK2 (PLK2, Homo sapiens, UniProt Q9NYY3)", "remaining signal [%]": 100}
{"target": "Rhodopsin kinase GRK7 (GRK7, Homo sapiens, UniProt Q8WTQ7)", "remaining signal [%]": 91}
{"target": "cGMP-dependent protein kinase 2 (PRKG2, Homo sapiens, UniProt Q13237)", "remaining signal [%]": 100}
{"target": "Receptor-type tyrosine-protein kinase FLT3 (FLT3, Homo sapiens, UniProt P36888, D835H)", "remaining signal [%]": 2.9}
{"target": "Cyclin-dependent kinase 11B (CDK11B, Homo sapiens, UniProt P21127)", "remaining signal [%]": 100}
{"target": "Serine/threonine-protein kinase PLK1 (PLK1, Homo sapiens, UniProt P53350)", "remaining signal [%]": 100}
{"target": "Serine/threonine-protein kinase DCLK2 (DCLK2, Homo sapiens, UniProt Q8N568)", "remaining signal [%]": 100}
{"target": "Protein kinase C delta type (PRKCD, Homo sapiens, UniProt Q05655)", "remaining signal [%]": 83}
{"data": "Study 3", "target": "Serine/threonine-protein kinase Nek7 (NEK7, Homo sapiens, UniProt Q8TDX7)", "read-out": "enzyme activity", "action": "inhibitor", "concentration": "0.5 µM", "baseline": "control", "Residues (Q8TDX7 1-302)": "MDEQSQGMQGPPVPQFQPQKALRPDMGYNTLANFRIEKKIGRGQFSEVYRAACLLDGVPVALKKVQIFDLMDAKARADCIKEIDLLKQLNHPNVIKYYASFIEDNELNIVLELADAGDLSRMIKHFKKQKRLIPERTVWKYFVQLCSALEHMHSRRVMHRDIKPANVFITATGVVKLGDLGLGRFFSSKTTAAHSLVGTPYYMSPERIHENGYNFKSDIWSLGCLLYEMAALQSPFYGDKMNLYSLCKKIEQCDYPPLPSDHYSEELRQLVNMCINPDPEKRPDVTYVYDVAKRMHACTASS"}
{"SMILES": "O=C(Nc1cccc(Nc2cc(Nc3cccc(C(F)(F)F)c3)ncn2)c1)C1CC1", "remaining activity [%]": 97.8}
{"SMILES": "CNC(=O)c1cc(Oc2ccc(NC(=O)Nc3ccc(Cl)c(C(F)(F)F)c3)cc2)ccn1", "remaining activity [%]": 98.2}
{"SMILES": "CO[C@H]1C[C@@H]2CC[C@@H](C)[C@@](O)(O2)C(=O)C(=O)N2CCCC[C@H]2C(=O)O[C@H]([C@H](C)C[C@@H]2CC[C@@H](O)[C@H](OC)C2)CC(=O)[C@H](C)/C=C(\\C)[C@@H](O)[C@@H](OC)C(=O)[C@H](C)C[C@H](C)/C=C/C=C/C=C/1C", "remaining activity [%]": 104}
{"SMILES": "O=C(O)c1ccc2c3c1cccc3c(=O)n1c3ccccc3nc21", "remaining activity [%]": 105}
{"SMILES": "Cc1ccc(Nc2nccc(N(C)c3ccc4c(C)n(C)nc4c3)n2)cc1S(N)(=O)=O", "remaining activity [%]": 101}
{"SMILES": "O=C(CCCc1ccc(-c2ccccc2F)cc1)Nc1ccc(O)cc1", "remaining activity [%]": 97.3}
{"SMILES": "Oc1ccc(-c2nc(-c3ccncc3)c(-c3ccc(F)cc3)[nH]2)cc1", "remaining activity [%]": 103}
{"SMILES": "O=C1NC(=O)C(c2cn(CCCO)c3ncccc23)=C1c1cnccn1", "remaining activity [%]": 95.4}
{"SMILES": "COc1ccc(C(=O)Nc2sc3c(c2C(N)=O)CCCC3)cc1OC", "remaining activity [%]": 99}
{"SMILES": "Nc1ccc2ncnc(NCCc3ccc(Oc4ccccc4)cc3)c2c1", "remaining activity [%]": 96}
{"SMILES": "Nc1ncnc2n[nH]c(Nc3ccc(F)cc3)c12", "remaining activity [%]": 97}
{"SMILES": "Nc1[nH]nc2nc3ccccc3nc12", "remaining activity [%]": 93.1}
{"SMILES": "COc1ccc(OC)c2c(=S)c3ccccc3[nH]c12", "remaining activity [%]": 97.2}
{"SMILES": "O=S(=O)(c1cccc2cnccc12)N1CCCNCC1", "remaining activity [%]": 97.5}
{"SMILES": "NCCNc1ncc(C(N)=O)c(Nc2cccc(C(F)(F)F)c2)n1", "remaining activity [%]": 101}
{"SMILES": "Cn1sc(=O)n(Cc2ccccc2)c1=O", "remaining activity [%]": 101}
{"data": "Study 4", "SMILES": "COc1cc(-c2cn(C3CCc4ccccc4N(CC(F)(F)F)C3=O)nn2)ccc1-n1ccc(C)n1 (stereo not drawn)", "read-out": "cell-free assay", "technique": "competition with immobilised ligand", "concentration": "1 µM"}
{"target": "Mitogen-activated protein kinase 4 (MAPK4, Homo sapiens, UniProt P31152)", "remaining binding": "99%"}
{"target": "Mitogen-activated protein kinase kinase kinase kinase 3 (MAP4K3, Homo sapiens, UniProt Q8IVH8)", "remaining binding": "100%"}
{"target": "Serine/threonine-protein kinase PLK3 (PLK3, Homo sapiens, UniProt Q9H4B4)", "remaining binding": "96%"}
{"target": "Cyclin-dependent kinase 5 (CDK5, Homo sapiens, UniProt Q00535)", "remaining binding": "100%"}
{"target": "Phosphatidylinositol 4-kinase beta (PI4KB, Homo sapiens, UniProt Q9UBF8)", "remaining binding": "87%"}
{"target": "Cyclin-dependent kinase 11B (CDK11B, Homo sapiens, UniProt P21127)", "remaining binding": "100%"}
{"target": "Phosphatidylinositol 4,5-bisphosphate 3-kinase catalytic subunit alpha isoform (PIK3CA, Homo sapiens, UniProt P42336, E545A)", "remaining binding": "71%"}
{"target": "Cyclin-dependent kinase 7 (CDK7, Homo sapiens, UniProt P50613)", "remaining binding": "87%"}
{"target": "Tyrosine-protein kinase receptor TYRO3 (TYRO3, Homo sapiens, UniProt Q06418)", "remaining binding": "100%"}
{"target": "Mitotic checkpoint serine/threonine-protein kinase BUB1 (BUB1, Homo sapiens, UniProt O43683)", "remaining binding": "94%"}
{"target": "Ephrin type-A receptor 2 (EPHA2, Homo sapiens, UniProt P29317)", "remaining binding": "100%"}
{"target": "Tyrosine-protein kinase ABL1, non-phosphorylated (ABL1, Homo sapiens, UniProt P00519, T315I)", "remaining binding": "77%"}
{"target": "LIM domain kinase 1 (LIMK1, Homo sapiens, UniProt P53667)", "remaining binding": "100%"}
{"target": "Tyrosine-protein kinase SYK (SYK, Homo sapiens, UniProt P43405)", "remaining binding": "100%"}
{"target": "Serine/threonine-protein kinase Chk1 (CHEK1, Homo sapiens, UniProt O14757)", "remaining binding": "100%"}
{"target": "Serine/threonine-protein kinase MRCK alpha (CDC42BPA, Homo sapiens, UniProt Q5VT25)", "remaining binding": "100%"}
{"target": "Tyrosine-protein kinase Fes/Fps (FES, Homo sapiens, UniProt P07332)", "remaining binding": "100%"}
{"target": "ALK tyrosine kinase receptor (ALK, Homo sapiens, UniProt Q9UM73)", "remaining binding": "92%"}
{"target": "cAMP-dependent protein kinase catalytic subunit beta (PRKACB, Homo sapiens, UniProt P22694)", "remaining binding": "81%"}
{"note": "Repeated from above (study 4):"}
{"target": "Mitotic checkpoint serine/threonine-protein kinase BUB1 (BUB1, Homo sapiens, UniProt O43683)", "remaining binding": "94%"}
{"target": "Ephrin type-A receptor 2 (EPHA2, Homo sapiens, UniProt P29317)", "remaining binding": "100%"}
{"target": "Tyrosine-protein kinase ABL1, non-phosphorylated (ABL1, Homo sapiens, UniProt P00519, T315I)", "remaining binding": "77%"}
{"target": "LIM domain kinase 1 (LIMK1, Homo sapiens, UniProt P53667)", "remaining binding": "100%"}
{"target": "Tyrosine-protein kinase SYK (SYK, Homo sapiens, UniProt P43405)", "remaining binding": "100%"}
{"target": "Serine/threonine-protein kinase Chk1 (CHEK1, Homo sapiens, UniProt O14757)", "remaining binding": "100%"}
{"target": "Serine/threonine-protein kinase MRCK alpha (CDC42BPA, Homo sapiens, UniProt Q5VT25)", "remaining binding": "100%"}
{"target": "Tyrosine-protein kinase Fes/Fps (FES, Homo sapiens, UniProt P07332)", "remaining binding": "100%"}
{"target": "ALK tyrosine kinase receptor (ALK, Homo sapiens, UniProt Q9UM73)", "remaining binding": "92%"}
